{"data": "Published values pooled from the literature", "note": "Compare with care: the assays were run in different laboratories. ± marks the error that the study gave."}
{"SMILES": "C[C@H](Nc1ncnc(N)c1C#N)c1c(-c2ccccc2)[nH]c2c(Cl)cccc2c1=O", "target or system": "WSU-NHL", "assay": "annexin V flow cytometry", "conditions": "0.03 µM", "scale": "relative to: untreated", "quantity": "apoptotic cells", "result": "3.1 fold"}
{"SMILES": "CC(=O)NCCN(CC(=O)NCCN(CC(=O)NCCN(CC(=O)NCCC(N)=O)C(=O)C[C@@H](N)Cc1ccccc1)C(=O)C[C@@H](N)CCCNC(=N)N)C(=O)C[C@@H](N)CCCNC(=N)N", "target or system": "HIV-1 TAR RNA", "conditions": "concentration not given, 25 °C", "quantity": "binding enthalpy ΔH°", "result": "-8.99 ± 0.598 kcal/mol"}
{"SMILES": "CNCc1ccc2c(c1)N(C(=O)OCc1c(F)c(F)c(F)c(F)c1F)[C@H](CNC(=N)N)[C@H]2NC(=O)C(=O)Nc1ccc(Cl)c(F)c1", "target or system": "env (Human immunodeficiency virus 1, UniProt D5FN35)", "assay": "pseudovirus infection, luciferase reporter", "test system": "TZM-bl", "conditions": "48 h", "quantity": "IC50", "result": "1.5 µM"}
{"SMILES": "F[P-](F)(F)(F)(F)F.OC(Cn1cncn1)(Cn1cc(-[c-]2cccc2)nn1)c1ccc(F)cc1F.[Co+3].c1cc[cH-]c1 (racemic)", "target or system": "Trichuris muris", "assay": "worm motility, Worminator", "conditions": "100 µM, adult females and males", "quantity": "inhibition", "result": "> 50%"}
{"SMILES": "CC(=O)NCCN(CC(=O)NCCN(CC(=O)NCCN(CC(=O)NCCC(N)=O)C(=O)[C@@H](N)CCCNC(=N)N)C(=O)[C@@H](N)CCCCN)C(=O)[C@@H](N)Cc1ccccc1", "target or system": "HIV-1 TAR RNA", "conditions": "concentration not given, 25 °C", "quantity": "binding enthalpy ΔH°", "result": "-15.9 ± 0.502 kcal/mol"}
{"SMILES": "CCCOC(=O)N1c2cc(CNC)ccc2[C@H](NC(=O)C(=O)Nc2ccc(Cl)c(F)c2)[C@H]1CNC(=N)N", "target or system": "Human immunodeficiency virus 1", "assay": "viral infection, Env pseudovirus", "test system": "TZM-bl, Du172.17 clade C", "quantity": "IC80", "result": "56.5 µM"}
{"note": "Repeated from above:"}
{"SMILES": "CC(=O)NCCN(CC(=O)NCCN(CC(=O)NCCN(CC(=O)NCCC(N)=O)C(=O)C[C@@H](N)Cc1ccccc1)C(=O)C[C@@H](N)CCCNC(=N)N)C(=O)C[C@@H](N)CCCNC(=N)N", "target or system": "HIV-1 TAR RNA", "conditions": "concentration not given, 25 °C", "quantity": "binding enthalpy ΔH°", "result": "-8.99 ± 0.598 kcal/mol"}
